Assay results gathered from unrelated publications.
Numbered parts are unrelated; each lists some results of a single study.
UniProt P21802, sequence (whole entry, looked up): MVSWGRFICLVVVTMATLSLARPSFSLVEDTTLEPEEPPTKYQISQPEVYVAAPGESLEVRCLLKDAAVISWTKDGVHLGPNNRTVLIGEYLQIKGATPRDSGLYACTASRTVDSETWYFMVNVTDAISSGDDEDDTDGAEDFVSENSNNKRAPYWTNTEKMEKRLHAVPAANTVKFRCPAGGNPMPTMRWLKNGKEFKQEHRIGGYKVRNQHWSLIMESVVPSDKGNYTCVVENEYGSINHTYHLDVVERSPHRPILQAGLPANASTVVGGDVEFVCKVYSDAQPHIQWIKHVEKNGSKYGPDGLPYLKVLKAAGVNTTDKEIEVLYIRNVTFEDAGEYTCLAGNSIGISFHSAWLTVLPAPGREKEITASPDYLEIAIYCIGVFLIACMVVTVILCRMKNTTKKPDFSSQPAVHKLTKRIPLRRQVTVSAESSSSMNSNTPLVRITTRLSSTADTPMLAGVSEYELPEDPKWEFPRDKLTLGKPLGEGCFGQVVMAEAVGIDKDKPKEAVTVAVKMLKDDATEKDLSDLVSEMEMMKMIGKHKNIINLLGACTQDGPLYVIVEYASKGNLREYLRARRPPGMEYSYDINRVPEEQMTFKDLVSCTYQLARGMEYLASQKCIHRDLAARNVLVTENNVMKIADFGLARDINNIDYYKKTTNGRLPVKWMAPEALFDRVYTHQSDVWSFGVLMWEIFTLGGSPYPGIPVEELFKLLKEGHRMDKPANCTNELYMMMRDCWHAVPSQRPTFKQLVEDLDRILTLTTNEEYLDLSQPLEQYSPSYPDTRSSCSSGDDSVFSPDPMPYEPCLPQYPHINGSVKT
UniProt P10721, sequence (whole entry, unmodified, looked up): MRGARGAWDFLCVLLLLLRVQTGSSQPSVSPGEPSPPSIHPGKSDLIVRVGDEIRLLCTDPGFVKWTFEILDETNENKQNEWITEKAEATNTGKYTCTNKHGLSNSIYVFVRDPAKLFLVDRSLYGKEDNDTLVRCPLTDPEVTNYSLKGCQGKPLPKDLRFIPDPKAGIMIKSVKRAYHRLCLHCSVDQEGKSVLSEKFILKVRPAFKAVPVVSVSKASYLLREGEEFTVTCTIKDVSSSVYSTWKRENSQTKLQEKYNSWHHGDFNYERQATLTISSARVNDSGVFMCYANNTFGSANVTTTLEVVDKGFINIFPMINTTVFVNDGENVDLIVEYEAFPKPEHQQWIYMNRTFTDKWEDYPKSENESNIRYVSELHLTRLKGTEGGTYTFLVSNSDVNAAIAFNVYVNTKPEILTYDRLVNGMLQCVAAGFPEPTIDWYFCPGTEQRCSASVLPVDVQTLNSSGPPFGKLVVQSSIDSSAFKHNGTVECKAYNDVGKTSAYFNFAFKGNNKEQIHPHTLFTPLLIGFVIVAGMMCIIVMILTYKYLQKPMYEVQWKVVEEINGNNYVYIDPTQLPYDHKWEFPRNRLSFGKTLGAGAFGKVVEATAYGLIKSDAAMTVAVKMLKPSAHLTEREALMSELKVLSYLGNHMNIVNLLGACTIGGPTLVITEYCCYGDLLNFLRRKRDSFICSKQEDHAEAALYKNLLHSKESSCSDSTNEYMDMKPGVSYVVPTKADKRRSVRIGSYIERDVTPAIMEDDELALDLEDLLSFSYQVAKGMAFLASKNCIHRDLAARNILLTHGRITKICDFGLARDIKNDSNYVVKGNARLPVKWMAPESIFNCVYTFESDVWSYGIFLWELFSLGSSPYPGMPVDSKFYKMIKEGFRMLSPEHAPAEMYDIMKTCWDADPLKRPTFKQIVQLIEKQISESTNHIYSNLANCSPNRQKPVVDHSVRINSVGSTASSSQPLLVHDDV
UniProt Q8NFD2, sequence (whole entry, looked up): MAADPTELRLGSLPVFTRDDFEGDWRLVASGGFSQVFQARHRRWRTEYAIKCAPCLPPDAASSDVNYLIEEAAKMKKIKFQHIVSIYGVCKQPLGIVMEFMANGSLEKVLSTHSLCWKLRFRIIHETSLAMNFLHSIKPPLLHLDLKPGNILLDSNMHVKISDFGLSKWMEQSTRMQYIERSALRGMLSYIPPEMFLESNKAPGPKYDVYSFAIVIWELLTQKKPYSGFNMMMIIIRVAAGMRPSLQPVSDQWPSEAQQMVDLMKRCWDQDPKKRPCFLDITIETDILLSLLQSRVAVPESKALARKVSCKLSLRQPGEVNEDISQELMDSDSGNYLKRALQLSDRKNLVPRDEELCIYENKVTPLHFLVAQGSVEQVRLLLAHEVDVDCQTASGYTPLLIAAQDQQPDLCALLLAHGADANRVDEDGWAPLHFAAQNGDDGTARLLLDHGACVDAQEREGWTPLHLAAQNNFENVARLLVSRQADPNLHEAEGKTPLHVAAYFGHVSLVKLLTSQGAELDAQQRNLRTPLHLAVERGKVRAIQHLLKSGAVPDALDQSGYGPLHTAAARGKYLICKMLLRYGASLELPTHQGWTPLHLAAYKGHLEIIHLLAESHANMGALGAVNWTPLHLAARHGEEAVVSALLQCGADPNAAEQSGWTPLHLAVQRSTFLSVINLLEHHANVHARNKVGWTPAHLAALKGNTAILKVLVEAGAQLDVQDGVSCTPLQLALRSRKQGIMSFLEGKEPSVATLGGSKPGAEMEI
UniProt P22607, sequence (whole entry, unmodified, looked up): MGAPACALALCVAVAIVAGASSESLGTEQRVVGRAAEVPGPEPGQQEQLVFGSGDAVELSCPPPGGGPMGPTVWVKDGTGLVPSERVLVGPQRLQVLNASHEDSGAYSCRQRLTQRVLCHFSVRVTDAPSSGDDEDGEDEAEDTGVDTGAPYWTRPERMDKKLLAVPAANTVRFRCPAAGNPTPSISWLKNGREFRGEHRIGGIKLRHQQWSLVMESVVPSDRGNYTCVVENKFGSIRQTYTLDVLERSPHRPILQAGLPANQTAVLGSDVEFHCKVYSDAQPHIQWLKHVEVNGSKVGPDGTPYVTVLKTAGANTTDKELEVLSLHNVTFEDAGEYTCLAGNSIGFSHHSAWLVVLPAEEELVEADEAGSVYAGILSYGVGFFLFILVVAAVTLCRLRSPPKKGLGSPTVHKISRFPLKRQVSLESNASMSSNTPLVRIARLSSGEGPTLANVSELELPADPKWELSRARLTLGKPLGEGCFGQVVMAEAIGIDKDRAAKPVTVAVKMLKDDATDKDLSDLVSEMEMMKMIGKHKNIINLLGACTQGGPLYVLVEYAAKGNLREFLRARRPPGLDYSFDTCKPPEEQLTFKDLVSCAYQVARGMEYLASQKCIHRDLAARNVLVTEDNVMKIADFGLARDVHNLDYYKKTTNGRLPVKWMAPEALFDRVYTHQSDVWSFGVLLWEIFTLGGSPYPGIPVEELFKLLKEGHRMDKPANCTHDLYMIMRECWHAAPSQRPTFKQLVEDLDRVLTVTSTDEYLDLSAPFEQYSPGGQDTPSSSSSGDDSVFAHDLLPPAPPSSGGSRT
UniProt Q99986, sequence (whole entry, looked up): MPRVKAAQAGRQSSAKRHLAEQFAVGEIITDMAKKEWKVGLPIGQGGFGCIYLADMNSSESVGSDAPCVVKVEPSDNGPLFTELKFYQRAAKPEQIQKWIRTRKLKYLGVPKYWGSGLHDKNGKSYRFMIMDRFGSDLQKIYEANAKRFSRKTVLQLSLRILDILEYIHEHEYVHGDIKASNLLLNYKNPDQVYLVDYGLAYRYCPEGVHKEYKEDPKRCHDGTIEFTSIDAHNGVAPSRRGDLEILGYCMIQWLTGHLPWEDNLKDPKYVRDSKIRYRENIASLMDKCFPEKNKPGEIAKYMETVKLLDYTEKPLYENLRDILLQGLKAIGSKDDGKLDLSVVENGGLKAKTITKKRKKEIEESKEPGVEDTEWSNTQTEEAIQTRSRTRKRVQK
UniProt P49759, sequence (whole entry, looked up): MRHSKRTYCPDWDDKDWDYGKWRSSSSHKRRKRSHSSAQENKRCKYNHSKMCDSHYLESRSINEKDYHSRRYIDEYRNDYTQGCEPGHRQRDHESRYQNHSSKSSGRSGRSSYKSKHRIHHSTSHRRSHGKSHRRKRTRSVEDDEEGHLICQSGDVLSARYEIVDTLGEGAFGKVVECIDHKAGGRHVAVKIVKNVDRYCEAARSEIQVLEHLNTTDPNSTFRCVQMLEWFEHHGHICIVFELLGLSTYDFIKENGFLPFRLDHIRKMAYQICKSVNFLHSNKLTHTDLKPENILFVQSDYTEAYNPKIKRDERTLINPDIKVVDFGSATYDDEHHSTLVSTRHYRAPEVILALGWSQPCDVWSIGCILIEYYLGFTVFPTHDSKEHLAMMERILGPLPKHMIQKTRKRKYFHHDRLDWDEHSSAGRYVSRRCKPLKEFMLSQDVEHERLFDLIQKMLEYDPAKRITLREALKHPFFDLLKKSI
UniProt P49336, sequence (whole entry, looked up): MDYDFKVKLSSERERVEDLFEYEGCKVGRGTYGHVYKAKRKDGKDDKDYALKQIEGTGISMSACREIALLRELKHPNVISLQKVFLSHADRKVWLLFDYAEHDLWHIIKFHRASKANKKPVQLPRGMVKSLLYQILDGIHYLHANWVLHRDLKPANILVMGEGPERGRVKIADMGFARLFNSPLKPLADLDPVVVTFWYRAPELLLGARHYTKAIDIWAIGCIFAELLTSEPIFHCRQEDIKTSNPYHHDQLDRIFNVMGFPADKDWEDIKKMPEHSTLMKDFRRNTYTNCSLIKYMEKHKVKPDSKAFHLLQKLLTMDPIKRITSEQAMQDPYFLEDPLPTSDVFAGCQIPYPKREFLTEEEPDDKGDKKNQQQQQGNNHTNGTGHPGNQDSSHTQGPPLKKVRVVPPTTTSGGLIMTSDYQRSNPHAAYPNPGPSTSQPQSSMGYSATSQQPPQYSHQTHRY
UniProt O75716, sequence (whole entry, looked up): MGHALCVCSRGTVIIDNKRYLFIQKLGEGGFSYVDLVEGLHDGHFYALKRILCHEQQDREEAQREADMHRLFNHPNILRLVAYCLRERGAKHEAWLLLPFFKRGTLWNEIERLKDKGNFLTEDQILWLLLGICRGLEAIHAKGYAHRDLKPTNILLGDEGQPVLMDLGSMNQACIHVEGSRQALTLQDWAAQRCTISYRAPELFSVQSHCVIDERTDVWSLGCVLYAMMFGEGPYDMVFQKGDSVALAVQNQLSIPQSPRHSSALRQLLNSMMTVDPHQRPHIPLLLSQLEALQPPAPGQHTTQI

Set 1
SMILES: Cn1cc(Cl)c2c(Oc3c(F)cc(Nc4cc(Cl)nc(N)n4)cc3F)ccnc21
Technique: competition with immobilised ligand
Concentration: 0.1 µM
target | effect on | remaining binding
Receptor-type tyrosine-protein kinase FLT3 (FLT3, Homo sapiens, UniProt P36888, K663Q) | cell-free assay | 100%
Serine/threonine-protein kinase N1 (PKN1, Homo sapiens, UniProt Q16512) | cell-free assay | 100%
Calcium/calmodulin-dependent protein kinase type II subunit alpha (CAMK2A, Homo sapiens, UniProt Q9UQM7) | cell-free assay | 82%
Epidermal growth factor receptor (EGFR, Homo sapiens, UniProt P00533) | cell-free assay | 97%
Mitogen-activated protein kinase kinase kinase kinase 4 (MAP4K4, Homo sapiens, UniProt O95819) | cell-free assay | 86%
Tyrosine-protein kinase Mer (MERTK, Homo sapiens, UniProt Q12866) | cell-free assay | 90%
Uncharacterized serine/threonine-protein kinase SBK3 (SBK3, Homo sapiens, UniProt P0C264) | cell-free assay | 65%
Epithelial discoidin domain-containing receptor 1 (DDR1, Homo sapiens, UniProt Q08345) | cell-free assay | 100%
Mast/stem cell growth factor receptor Kit (KIT, Homo sapiens, UniProt P10721, D816V) | cell-free assay | 97%
Serine/threonine-protein kinase WNK4 (WNK4, Homo sapiens, UniProt Q96J92) | cell-free assay | 100%
Tyrosine-protein kinase ABL1, phosphorylated (ABL1, Homo sapiens, UniProt P00519, T315I) | cell-free assay | 86%
Cyclin-dependent kinase 8 (CDK8, Homo sapiens, UniProt P49336) | cell-free assay | 97%
Myosin-IIIb (MYO3B, Homo sapiens, UniProt Q8WXR4) | binding | 57%
Ribosomal protein S6 kinase alpha-2, C-terminal kinase domain (RPS6KA2, Homo sapiens, UniProt Q15349) | cell-free assay | 100%
ALK tyrosine kinase receptor (ALK, Homo sapiens, UniProt Q9UM73, L1196M) | cell-free assay | 100%
Insulin-like growth factor 1 receptor (IGF1R, Homo sapiens, UniProt P08069) | cell-free assay | 97%
Cyclin-dependent kinase-like 5 (CDKL5, Homo sapiens, UniProt O76039) | cell-free assay | 78%
Muscle, skeletal receptor tyrosine-protein kinase (MUSK, Homo sapiens, UniProt O15146) | cell-free assay | 100%
Mast/stem cell growth factor receptor Kit (KIT, Homo sapiens, UniProt P10721, D816H) | cell-free assay | 79%
Tyrosine-protein kinase ITK/TSK (ITK, Homo sapiens, UniProt Q08881) | cell-free assay | 97%
Fibroblast growth factor receptor 2 (FGFR2, Homo sapiens, UniProt P21802) | cell-free assay | 98%
Cyclin-dependent kinase 15 (CDK15, Homo sapiens, UniProt Q96Q40) | cell-free assay | 94%
Epidermal growth factor receptor (EGFR, Homo sapiens, UniProt P00533, L858R) | cell-free assay | 98%
Ankyrin repeat and protein kinase domain-containing protein 1 (ANKK1, Homo sapiens, UniProt Q8NFD2) | cell-free assay | 83%
Proto-oncogene tyrosine-protein kinase Src (SRC, Homo sapiens, UniProt P12931) | cell-free assay | 92%

Set 2
Host: human
Sample: microsomes or S9
Concentration: 2 µM
Time: 0.5 h
SMILES | remaining compound [%]
COc1cccc2c1CCC(=O)N2CCCN1CCC(c2ccccc2)CC1 | 10.6
CC(C)n1c(CNC(=O)c2cc(-c3ccco3)n[nH]2)nc2ccccc21 | 78.3
Cc1cc(C)c(S(=O)(=O)N[C@H](CO)C(C)C)c(C)c1 | < 1
O=S(=O)(Nc1cc(F)cc(F)c1)c1c[nH]c2ncccc12 | 78.5
CCOc1ccsc1C1=NOC(C)(COCc2c(Cl)cccc2Cl)C1 (stereo not shown) | 1.81
CCOC(=O)c1c(N)sc2c1CCC(NC(=O)OC(C)(C)C)C2 (stereo not shown) | 97.7
CN1O[C@H](COc2ccc(O/C(F)=C\c3ccccc3)cc2)C[C@@]1(Cn1cncn1)c1ccccc1 | 74.8
CN(c1ccc(Cl)nn1)c1ccc(N)cc1Cl | 88.9
O=C1C[C@H](n2nc(-c3ccc(F)cc3)oc2=S)[C@H]2CO[C@@H]1O2 | 6.37
CCOC(=O)C1CCN(C(=O)CCC(=O)N2CCCn3nc(-c4cn(C)c5ccccc45)cc32)CC1 | 0.76
CCc1ccc(NC(=O)CN(CCc2ccccc2)S(=O)(=O)c2ccc(C)cc2)cc1 | 2.76

Set 3
Structure (SMILES): O=C(Nc1ccc(Cl)cc1)c1ccccc1NCc1ccncc1
Effect on: enzyme activity
Action: inhibitor
Concentration: 0.5 µM
Baseline: control
target | remaining activity [%]
Dual specificity tyrosine-phosphorylation-regulated kinase 2 (DYRK2, Homo sapiens, UniProt Q92630) | 96
Mitogen-activated protein kinase kinase kinase 9 (MAP3K9, Homo sapiens, UniProt P80192) | 89
Insulin receptor-related protein (INSRR, Homo sapiens, UniProt P14616) | 96.1
Platelet-derived growth factor receptor beta (PDGFRB, Homo sapiens, UniProt P09619) | 45
Fibroblast growth factor receptor 2 (FGFR2, Homo sapiens, UniProt P21802) | 95.7
Mitogen-activated protein kinase kinase kinase kinase 5 (MAP4K5, Homo sapiens, UniProt Q9Y4K4) | 95.8
Serine/threonine-protein kinase PLK1 (PLK1, Homo sapiens, UniProt P53350) | 103
BDNF/NT-3 growth factors receptor (NTRK2, Homo sapiens, UniProt Q16620) | 102
Receptor-interacting serine/threonine-protein kinase 2 (RIPK2, Homo sapiens, UniProt O43353) | 82.9
Phosphorylase b kinase gamma catalytic chain, liver/testis isoform (PHKG2, Homo sapiens, UniProt P15735) | 97.1
Activin receptor type-1 (ACVR1, Homo sapiens, UniProt Q04771) | 97.2
Serine/threonine-protein kinase TAO1 (TAOK1, Homo sapiens, UniProt Q7L7X3) | 110
Serine/threonine-protein kinase VRK1 (VRK1, Homo sapiens, UniProt Q99986) | 104
RAF proto-oncogene serine/threonine-protein kinase (RAF1, Homo sapiens, UniProt P04049) | 62.6
Tyrosine-protein kinase HCK (HCK, Homo sapiens, UniProt P08631) | 101
Serine/threonine-protein kinase D3 (PRKD3, Homo sapiens, UniProt O94806) | 92.1
Serine/threonine-protein kinase ULK1 (ULK1, Homo sapiens, UniProt O75385) | 86.9
Dual serine/threonine and tyrosine protein kinase (DSTYK, Homo sapiens, UniProt Q6XUX3) | 94.7
Serine/threonine-protein kinase Sgk3 (SGK3, Homo sapiens, UniProt Q96BR1) | 92.5

Set 4
Compound: CC#CC(=O)N1CCC[C@H]1c1nc(-c2ccc(C(=O)Nc3ccccn3)cc2)c2c(N)nccn12
Effect on: enzyme activity
Action: inhibitor
Concentration: 1 µM
target | inhibition [%]
Ephrin type-A receptor 2 (EPHA2, Homo sapiens, UniProt P29317) | 7
Receptor-type tyrosine-protein kinase FLT3 (FLT3, Homo sapiens, UniProt P36888, D835V/ITD) | 0
Casein kinase II subunit alpha' (CSNK2A2, Homo sapiens, UniProt P19784) | 7
Tyrosine-protein kinase TXK (TXK, Homo sapiens, UniProt P42681) | 78
Cyclin-dependent kinase-like 3 (CDKL3, Homo sapiens, UniProt Q8IVW4) | 0
Fibroblast growth factor receptor 3 (FGFR3, Homo sapiens, UniProt P22607, G697C) | 15
Dual specificity protein kinase CLK1 (CLK1, Homo sapiens, UniProt P49759) | 7
Cyclin-dependent kinase 18 (CDK18, Homo sapiens, UniProt Q07002) | 0
Serine/threonine-protein kinase 16 (STK16, Homo sapiens, UniProt O75716) | 0
Cyclin-dependent kinase 7 (CDK7, Homo sapiens, UniProt P50613) | 61
Ankyrin repeat and protein kinase domain-containing protein 1 (ANKK1, Homo sapiens, UniProt Q8NFD2) | 0
Serine/threonine-protein kinase MRCK gamma (CDC42BPG, Homo sapiens, UniProt Q6DT37) | 22

Excerpt of the above (set 2):
SMILES | remaining compound [%]
CN1O[C@H](COc2ccc(O/C(F)=C\c3ccccc3)cc2)C[C@@]1(Cn1cncn1)c1ccccc1 | 74.8
O=S(=O)(Nc1cc(F)cc(F)c1)c1c[nH]c2ncccc12 | 78.5
Cc1cc(C)c(S(=O)(=O)N[C@H](CO)C(C)C)c(C)c1 | < 1
CCOC(=O)C1CCN(C(=O)CCC(=O)N2CCCn3nc(-c4cn(C)c5ccccc45)cc32)CC1 | 0.76
CCOc1ccsc1C1=NOC(C)(COCc2c(Cl)cccc2Cl)C1 (stereo not shown) | 1.81
